Measured values collected from several papers.
Numbered parts are unrelated; each lists some results of a single study.

Block 1
Target: Prothrombin, mature alpha-thrombin (F2, Homo sapiens, UniProt P00734)
Technique: aptamer microarray, sandwich
Molecule type: DNA with 2'F-ANA
Medium: in vitro
Concentration: 200 nM
Setting: whole 15-mer aptamer, many near background
With: Cy3 exosite-II aptamer, 400 nM
Direction: higher = stronger binding
Sequence: GGTTGGTGTGGTTGG
| Modification | mean fluorescence intensity [a.u.] |
| --- | --- |
| 2'F-ANA at 2 4 5 6 7 10 11 13 | 77.3 |
| 2'F-ANA at 1 3 6 8 9 10 11 15 | 75.7 |
| 2'F-ANA at 1 5 7 9 15 | 60.3 |
| 2'F-ANA at 1 11 15 | 183 |
| 2'F-ANA at 3 4 5 6 7 8 10 14 | 47.8 |
| 2'F-ANA at 1 2 3 5 6 11 | 54.8 |
| 2'F-ANA at 1 7 8 9 12 | 428 |
| 2'F-ANA at 6 8 9 14 | 247 |
| 2'F-ANA at 1 2 4 7 8 10 11 13 14 | 56.7 |
| 2'F-ANA at 1 2 3 5 8 9 10 12 13 | 50.6 |
| 2'F-ANA at 1 2 3 4 6 7 9 11 13 14 15 | 55.2 |
| 2'F-ANA at 3 6 7 9 11 12 13 14 | 637 |
| 2'F-ANA at 1 2 4 5 6 7 10 11 13 14 15 | 55.1 |
| 2'F-ANA at 1 4 5 8 11 12 14 15 | 47.5 |
| 2'F-ANA at 2 3 4 5 6 12 14 | 49.3 |
| 2'F-ANA at 1 5 6 7 8 12 14 | 49.8 |
| 2'F-ANA at 1 4 5 6 7 9 11 12 15 | 80.7 |
| 2'F-ANA at 3 4 10 12 13 14 15 | 195 |
| 2'F-ANA at 2 4 5 6 7 8 9 11 12 14 15 | 96.8 |
| 2'F-ANA at 1 2 3 4 5 6 8 10 12 13 14 15 | 48.6 |

Block 2
Target: Interferon regulatory factor 3, full length, phosphomimetic (IRF3, Homo sapiens, UniProt Q14653, residues 1-427, S386D/S396D/S398D/S402D/T404D/S405D)
Chain of UniProt Q14653 (whole entry, unmodified, looked up): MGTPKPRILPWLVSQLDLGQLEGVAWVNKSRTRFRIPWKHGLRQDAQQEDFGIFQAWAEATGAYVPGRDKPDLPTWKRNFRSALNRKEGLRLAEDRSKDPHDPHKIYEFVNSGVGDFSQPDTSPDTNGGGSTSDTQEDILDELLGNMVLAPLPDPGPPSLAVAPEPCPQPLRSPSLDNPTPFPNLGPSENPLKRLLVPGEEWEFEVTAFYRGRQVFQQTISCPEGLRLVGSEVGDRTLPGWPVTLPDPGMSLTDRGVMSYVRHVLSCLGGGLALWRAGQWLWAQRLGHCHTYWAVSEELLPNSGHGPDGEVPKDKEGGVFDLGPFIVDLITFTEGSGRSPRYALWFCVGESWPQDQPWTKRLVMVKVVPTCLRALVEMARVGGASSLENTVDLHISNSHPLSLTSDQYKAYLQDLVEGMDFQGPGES
Technique: protein-binding microarray
Molecule type: double-stranded DNA, one strand shown
Medium: in vitro
Concentration: 2540 nM top
Setting: 60-bp whole probe
With: salmon DNA 0.4 mg/ml
Relative to: random background probes
Direction: higher = stronger binding
Shared flanks, not repeated: GCCTAGCAC … GTCTTGATTCGCTTGACGCTGCTG
| Sequence | fitted relative affinity [z-score] |
| --- | --- |
| TTAGGAATGGACACTGGGTTAGTGCTA | -0.417 |
| GACGGTTCCCTTTTCCGGACGTGCTAG | 6.56 |
| TTAGGTTACGGTCTCGGTTAGTGCTAG | 1.52 |
| TCAGTTTCTCCTTTCGGACTGTGCTAG | 3.56 |
| AGGCTTTTTTTTTTTTTTTTGTGCTAG | 0.297 |
| TTAGATTTCAGACTGGTTTAGTGCTAG | 0.618 |
| TACGGTTTCCTTTCCCTGACGTGCTAG | 9.76 |
| TCAAGCCTCTGCATTCCCACTGTGCTA | -0.781 |
| TTATCAATCATTTTAGTTTTGTGCTAG | 1.16 |
| GACTGTTTCCTACTGCTGACGTGCTAG | 4.4 |
| GAAGATGTGTATATGACAATGTGCTAG | -0.461 |
| TCATATTTATGTATACAACTGTGCTAG | 0.946 |
| GACGGACTGGATTTCGGGACGTGCTAG | 0.0335 |
| TTAGGTTTCGACTATAGGTTAGTGCTA | 2.23 |
| AACGGACTGGGGACTGGGGACGTGCTA | -0.892 |
| AGCCGAACAGCAATCGGATGGTGCTAG | -0.00515 |
| AGAATCTTAGATATTAAACTGTGCTAG | 0.0813 |
| GACGGACTGCTTTACCTGACGTGCTAG | -0.14 |
| TTAGATTTCAGGTTCGATTAGTGCTAG | 1.58 |
| GACGATCTCAGTTTCGAGCCGTGCTAG | 1.66 |
| CCAAACCTGTGCGCCGTGCCGTGCTAG | 0.255 |
| TTAGGATTGGGGTATCGGTTAGTGCTA | 0.174 |
| GACGATATCGGGACTGGTGACGTGCTA | 0.000221 |
| GCCGATATCGGGACTGGAGACGTGCTA | 0.713 |
| GACGATTTCAGTATCGAGAAGTGCTAG | 2.23 |

Block 3
Target: RNA binding protein fox-1 homolog 2, RRM domain, GST-SBP tag (RBFOX2, Homo sapiens, UniProt O43251-10, residues 100-194)
Technique: RNA Bind-n-Seq
Molecule type: RNA
Medium: in vitro
Concentration: 365 nM
Setting: natural RNA segment, single round, ends assumed
Relative to: no-protein control
Direction: higher = stronger binding
Shared flanks, not repeated: GGGAGUUCUACAGUCCGACGAUC … UGGAAUUCUCGGGUGCCAA
Target sequence (chain): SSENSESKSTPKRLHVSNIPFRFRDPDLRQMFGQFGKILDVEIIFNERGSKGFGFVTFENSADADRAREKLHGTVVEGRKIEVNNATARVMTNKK
| Sequence | RBNS enrichment (R) |
| --- | --- |
| UGCAGUGGCAGGCGUGUUUGAGCGAGCCUCCUUCCUUAUUCAUAGGGAUUCAGUGUUGACUGUUCCCUGGUGUCCCCGCUGUCCUGUGUCGUCUGGUAUAGAAAGCGCAU | 10.5 |
| CAAUAUUCCUAAGUAGCAAUGGGGUUGGCUCAAGUCUUUAUUAACAAAGAACAUUCUCUUUCAUCUAUAAAGAAAUUCUUAAAGAUGCAUUGACAGUGUUGAAUUACCAA | 0.396 |
| UGCCUUGCGCUAUCAUGACUGACUGGCCCAGUAUGAUUCUGUUGUCGCUGAUCUCCCGGAGGAGGAGGCUGUUGACCUGAAAACAGUGGCGUGGCUCCCCUGUGCCCAGA | 0.363 |
| UUGUCAAUGCAGUGUGAAUGUUCUACAUAAAGUGCUUUAACCCUUAACAUUUCCUGGUCAGGAAGGAAAAUCAGUACCUGGACGGGCCUCGAAAAUGACAAAUGCAACAG | 0.689 |
| CUGCGUGCCCCUGAACCUCUGUGCAGCCCGGAAGGCUGAUGUACAGGUGUACCUCAAUCCACAUUACAGCCAUGCUCCUAAUGUACAUGGACAUUUUUGUAACUCAGCUC | 0.444 |
| AGGCUCCAAGGAGCAUUGGAGAGAAUGCCCCUUUCUGGGCUUGAUGUCUUGGUUUUGGUUUAAUACCAAAUUUCUCUUGGUCUUGGUUUAAUACCCGACUCCUCCCAAAU | 0.411 |
| UUGGGGUUUUUCUUUCUUUCUUUUUUGAUUUUGCACUGGACGGUGACGUCAGCCAUGUACAGGAUCCACAGGGGUGGUGUCAAAUGCUAUUGAAAUUGUGUUGAAUUGUA | 0.468 |
| ACUUCUUGUCUGAGACAGAAAAAUUUCCUACUACAGCAGUGCAGUCCAGAGGUUAAGAUGUAUUAGAAUUAUACAAUAUCAGUUUAAAAAUCUGUAUGCAUAAAGAAUGC | 0.373 |
| UGCAUUUCAAACUAAUCCAAUAUUUAGUGUUUCACAGAAACACUAGAAAACGUUGAACACUCCUACUGCCUGGAUAUAUGGUAGUGCAGUUAUGUUGUUUAUGGCUCAAG | 0.31 |
| AAGACACAGUGAGGGACAGCCCAGCUGCAAUAAAAGGGAUUUUCUAUGUCAGAAGCAGCAGGCUUUGCUUCAGCUUGAGUUGGAGCCGUGUGAGUCUCAGGCCAGGCCCU | 0.318 |
| ACUGUAUCAUAUAACAGAAUGAUCCAGGGGAGAUUAAGCUUUGGGCAAGGGCUAUUUACCAGGGCUUAAAUGUUGUGUCUAGAAUUAAGUAUGGGCAUAAACUGGCUUCU | 0.324 |
| GGCAGGGCCUUGAAAGAGCUCACACUUCCGAGGCGGAAAUGGGUACCAAAAUGAGAGAUCAGCAAGAUUUCCCAAGAUAGGAGAAUCCUCCUGCUGCCUGCGUGGGAGAA | 1.14 |

Block 4
Target: Histone acetyltransferase KAT6A, winged helix 2, GST fusion (KAT6A, Homo sapiens, UniProt Q92794, residues 85-181)
Technique: protein binding microarray
Molecule type: double-stranded DNA, one strand shown
Medium: in vitro
Concentration: not given
Setting: 8-mer, flanks averaged, mean of 2 arrays, mostly near background
Relative to: not given
Direction: higher = stronger binding
Residues (chain): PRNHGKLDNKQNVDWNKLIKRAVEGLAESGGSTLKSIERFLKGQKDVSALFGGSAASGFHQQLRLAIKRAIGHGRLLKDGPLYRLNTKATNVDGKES
| Sequence | E-score |
| --- | --- |
| CAGGGGAG | -0.0373 |
| GGCCTACC | -0.0868 |
| ATTGCAAA | 0.00458 |
| CGAATGTC | 0.0166 |
| GTAAGCAA | 0.126 |
| CCCATAAA | 0.0827 |
| AGCCCAAA | 0.0192 |
| AGAGCAAT | 0.139 |
| AGGGGAGG | 0.175 |
| ACTAGTTC | -0.151 |
| AATGCGAT | 0.00357 |
| AAACAGTA | -0.0752 |
| CCATACTC | -0.0296 |
| AAGAGGAC | -0.0861 |
| ATGCTTCC | 0.0453 |
| ACGGTGCA | -0.0394 |
| ACTAGTTA | -0.114 |
| AATAGTAA | -0.0811 |
| AACGTCTC | -0.116 |
| AGATTCGA | -0.027 |
| ACCCAATC | -0.0217 |
| ACCCTCCT | -0.0555 |
| ATTAAAAC | 0.193 |
| CAATTGAC | 0.0341 |
| CAGTTTAA | -0.0899 |

Block 5
Target: Sal-like protein 4, full length isoform A (SALL4, Homo sapiens, UniProt Q9UJQ4, residues 1-1053)
Chain of UniProt Q9UJQ4 (whole entry, looked up): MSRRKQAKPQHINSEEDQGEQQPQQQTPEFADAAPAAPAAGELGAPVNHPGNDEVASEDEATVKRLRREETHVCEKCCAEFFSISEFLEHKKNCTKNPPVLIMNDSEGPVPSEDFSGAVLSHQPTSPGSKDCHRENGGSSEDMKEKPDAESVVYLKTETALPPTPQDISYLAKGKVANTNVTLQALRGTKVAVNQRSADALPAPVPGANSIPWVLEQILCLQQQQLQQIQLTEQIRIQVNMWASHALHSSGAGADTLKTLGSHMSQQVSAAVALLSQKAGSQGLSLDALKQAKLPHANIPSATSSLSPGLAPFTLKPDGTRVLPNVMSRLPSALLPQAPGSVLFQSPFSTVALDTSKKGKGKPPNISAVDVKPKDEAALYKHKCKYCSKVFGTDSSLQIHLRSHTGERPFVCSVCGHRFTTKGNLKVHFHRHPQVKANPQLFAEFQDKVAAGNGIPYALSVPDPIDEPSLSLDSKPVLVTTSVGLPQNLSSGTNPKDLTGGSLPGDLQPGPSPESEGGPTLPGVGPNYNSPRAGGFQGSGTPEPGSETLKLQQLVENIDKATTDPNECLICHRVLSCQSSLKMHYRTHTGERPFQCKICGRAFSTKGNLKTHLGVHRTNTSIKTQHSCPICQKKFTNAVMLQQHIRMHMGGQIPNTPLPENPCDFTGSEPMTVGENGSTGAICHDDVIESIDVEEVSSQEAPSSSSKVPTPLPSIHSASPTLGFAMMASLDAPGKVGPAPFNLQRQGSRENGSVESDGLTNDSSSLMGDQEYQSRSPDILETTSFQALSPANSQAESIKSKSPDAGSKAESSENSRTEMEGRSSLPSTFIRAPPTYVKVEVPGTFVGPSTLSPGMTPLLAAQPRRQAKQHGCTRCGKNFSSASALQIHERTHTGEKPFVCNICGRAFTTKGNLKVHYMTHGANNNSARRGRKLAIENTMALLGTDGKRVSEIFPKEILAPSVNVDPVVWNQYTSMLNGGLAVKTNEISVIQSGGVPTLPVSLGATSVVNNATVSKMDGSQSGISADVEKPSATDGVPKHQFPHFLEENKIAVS
Technique: universal PBM
Molecule type: double-stranded DNA, one strand shown
Medium: in vitro
Concentration: 600 nM
Setting: 8-mer, flanks averaged, mean of replicates
Direction: higher = stronger binding
| Sequence | E-score |
| --- | --- |
| ACACTCCC | -0.151 |
| AGATCTCC | -0.251 |
| TGCGGAAA | 0.055 |
| AATCCCAC | -0.132 |
| AAACTAGA | 0.167 |
| CCGGGAAG | -0.238 |
| ATAGACTC | 0.114 |
| ATAAGTAG | 0.249 |
| GTATATCA | 0.363 |
| GCAACAGA | 0.0564 |
| AGTCTTAC | 0.0227 |
| ACAGTGCC | -0.216 |
| ATAGGGCA | 0.0276 |
| GCAGGGGA | -0.237 |
| AATACGGA | 0.125 |
| CCATAAGA | 0.153 |
| CAGTTAAC | -0.0965 |
| TAATGGGA | 0.0643 |
| CAGACTAC | -0.0758 |
| CAGTGGGC | -0.196 |
| CTGTGGCA | -0.11 |
| GCGAGGCA | -0.155 |
| AAGGAAGA | 0.0279 |
| AACTACTA | 0.243 |
| GGGATGTA | 0.0455 |

Excerpt of the above (block 4):
| Sequence | E-score |
| --- | --- |
| GTAAGCAA | 0.126 |
| CCCATAAA | 0.0827 |
| AGCCCAAA | 0.0192 |
| AGAGCAAT | 0.139 |
| AGGGGAGG | 0.175 |
| ACTAGTTC | -0.151 |
| AATGCGAT | 0.00357 |
| AAACAGTA | -0.0752 |
| CCATACTC | -0.0296 |
